Results from different studies.
A part holds a random share of what one study measured. Positions count from the first letter of the parent shown.

Sample 1
Target: Interferon regulatory factor 5, full length, phosphomimetic (IRF5, Homo sapiens, UniProt Q13568-2, residues 1-514, K96S/S451D/S453D/S456D/S462D)
Method: protein-binding microarray
Molecule type: double-stranded DNA, one strand shown
Medium: in vitro
Tested at: 250 nM
Notes: 60-bp whole probe
Added: salmon DNA 0.4 mg/ml
Reference: random background probes
Reading: higher = stronger binding
All sequences stand within: GCCTAGCAC … GTCTTGATTCGCTTGACGCTGCTG
| Sequence | log fluorescence |
| --- | --- |
| GACGATCTCAGTTTCGAGACGTGCTAG | 4.94 z-score |
| TTAGTACTGGGGTATCGGTTAGTGCTA | 2.39 z-score |
| TTGGGTTTCGGTTCCGGTTAGTGCTAG | 10.4 z-score |
| TTAGATATCAGTCTCGGTTAGTGCTAG | 2.03 z-score |
| TCATGAGTCCCTATCTCACTGTGCTAG | -0.287 z-score |
| GACGGACTGGGGACTGGTGACGTGCTA | -0.728 z-score |
| TCAAACATCCCAATGGCACTGTGCTAG | -0.214 z-score |
| TTAAATCTCAGACTGGATTAGTGCTAG | -0.0473 z-score |
| GACGAACTGGTGTATCGAGACGTGCTA | 0.342 z-score |
| GACGGTTTGGGTCTCGGGACGTGCTAG | -0.191 z-score |
| TTAGTACTGAGTATCGATTAGTGCTAG | 5.98 z-score |
| TTAAGTTTCGGGACTGGGTTAGTGCTA | 7.77 z-score |
| GACGGTTTCAGGTATCGGGACGTGCTA | 3.15 z-score |
| GACTATATCAGTTTCGAGACGTGCTAG | 6.25 z-score |
| TCAAGTCTCAACCCCCAAACTGTGCTA | -0.0219 z-score |
| TTGGCTTATTCCAGATTTTTGTGCTAG | 0.134 z-score |
| TGAGGACTGGACTATCGGTTAGTGCTA | 5.71 z-score |
| GACGGTCTCCTTCTCCTGAGGTGCTAG | -0.118 z-score |
| TTAGATGTCAGTTTCGATTAGTGCTAG | 9.48 z-score |

Sample 2
Target: Ras GTPase-activating protein-binding protein 1, RRM domain (G3BP1, Homo sapiens, UniProt Q13283)
Chain of UniProt Q13283 (whole entry, looked up): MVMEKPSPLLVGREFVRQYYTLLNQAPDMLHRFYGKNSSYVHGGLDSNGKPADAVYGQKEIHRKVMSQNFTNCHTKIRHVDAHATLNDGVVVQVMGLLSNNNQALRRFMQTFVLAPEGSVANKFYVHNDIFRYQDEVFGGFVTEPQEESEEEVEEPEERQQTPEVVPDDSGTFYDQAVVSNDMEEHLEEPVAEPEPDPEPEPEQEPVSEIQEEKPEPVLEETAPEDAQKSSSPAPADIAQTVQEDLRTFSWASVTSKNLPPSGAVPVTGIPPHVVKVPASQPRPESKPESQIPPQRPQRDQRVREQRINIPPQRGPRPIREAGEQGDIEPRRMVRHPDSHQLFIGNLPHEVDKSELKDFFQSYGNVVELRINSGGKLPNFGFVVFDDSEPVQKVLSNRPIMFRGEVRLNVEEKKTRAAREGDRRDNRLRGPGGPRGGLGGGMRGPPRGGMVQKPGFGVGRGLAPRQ
Method: RNA Bind-n-Seq
Molecule type: RNA
Medium: in vitro
Tested at: 1 µM
Notes: whole 134-nt RNA, ends assumed
Added: 150 mM KCl
Reference: input library
Reading: higher = stronger binding
| Sequence | log2 enrichment |
| --- | --- |
| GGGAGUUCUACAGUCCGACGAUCUCCUGUGCUACACAUCGUAUGUACCGAAUCGGGUUUGGGUUUUUUUGGGUUUUUUUGGGAAAGUAUUAUGUUACGCCGUUCGGAUCUGCAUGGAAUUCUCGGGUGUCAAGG | -0.0201 |
| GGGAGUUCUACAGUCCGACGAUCUAACUUUAGAGGAGGAUCUGAUGGAUAUGGCAGUGGACGUGGAUUUGGGGAUGGCUAUAAUGGGUAUGGAGGAGGACAUGGAGGUGGCAAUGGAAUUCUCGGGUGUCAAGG | -0.415 |
| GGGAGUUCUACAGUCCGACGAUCUCCUCAAGUCCUGUGCUACACAUCGUAUGUACCGAAUCGGUGGAGGUUUGGAAAGUAUUAUGUUACGCCGUUCGGAUCUGCACUUCCAGCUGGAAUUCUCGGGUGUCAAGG | -0.278 |
| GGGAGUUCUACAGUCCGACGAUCUAACUUUAGAGGAGGAUCUGAUGGAUAUGGCAGUGGACGUGGAUUUGGGGAUGGCUAGAAUGGGUAUGGAGGAGGACCUGGAGGUGGCAAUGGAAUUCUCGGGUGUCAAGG | -0.254 |
| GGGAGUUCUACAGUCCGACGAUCACCAUGCAGGUGGGCAUCUUUGGGAAGUGGGGCAAGGGGGGGAUAAGGAGGGGGGUAACACUUUGGGAACAGGUGGUCCCAGGUCGUUUCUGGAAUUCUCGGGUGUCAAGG | 0.873 |
| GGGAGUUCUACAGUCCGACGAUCCAAGUCCUGUGCUACACAUCGUAUGUACCGAAUCGGGUGGGUGGGAAAAAAAGGGAAAGUAUUAUGUUACGCCGUUCGGAUCUGCACUUCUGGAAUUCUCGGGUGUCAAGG | 0.521 |
| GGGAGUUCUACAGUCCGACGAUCCAAGUCCUGUGCUACACAUCGUAUGUACCGAAUCGGGGUUUGGGGUUUGGGUUUGGAAAGUAUUAUGUUACGCCGUUCGGAUCUGCACUUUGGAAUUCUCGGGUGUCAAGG | -0.574 |
| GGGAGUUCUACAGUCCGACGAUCAAGUCCUGUGCUACACAUCGUAUGUACCGAAUCGGGAAAGGGAAAGGGAAAAAGGGAAAGUAUUAUGUUACGCCGUUCGGAUCUGCACUUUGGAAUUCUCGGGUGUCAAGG | 0.353 |
| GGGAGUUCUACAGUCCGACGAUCUCCUGUGCUACACAUCGUAUGUACCGAAUCGGCCCCCCGGGCCCCCCGGGCCCCCCGGGAAAGUAUUAUGUUACGCCGUUCGGAUCUGCAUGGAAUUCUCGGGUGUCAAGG | -0.442 |

Sample 3
Target: Histone acetyltransferase KAT6A, winged helix 2, GST fusion (KAT6A, Homo sapiens, UniProt Q92794, residues 85-181)
Method: protein binding microarray
Molecule type: double-stranded DNA, one strand shown
Medium: in vitro
Tested at: not given
Notes: 8-mer, flanks averaged, mean of 2 arrays, mostly near background
Reference: not given
Reading: higher = stronger binding
Construct (chain): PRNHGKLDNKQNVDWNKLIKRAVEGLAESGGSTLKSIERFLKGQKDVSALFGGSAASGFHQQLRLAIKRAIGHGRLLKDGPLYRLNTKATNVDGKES
| Sequence | E-score |
| --- | --- |
| CCTGGCTA | -0.0714 |
| ATGTGTCC | -0.042 |
| CGATCTAG | -0.203 |
| ATTGATGC | 0.0641 |
| CACGCTCG | -0.0556 |
| GGGCAATA | 0.069 |
| AGGCCGGG | 0.182 |
| TAATGCTA | 0.0943 |
| ACTTACTC | -0.154 |
| ACCAACCA | 0.0199 |
| CGGATTTC | 0.105 |
| ACTTCTTC | -0.0647 |
| CACACACC | -0.0347 |
| GCATATGC | 0.0589 |
| GGTGGAAA | -0.0769 |
| GAGGAAGC | 0.132 |
| AATTCAGA | 0.0828 |
| TCAAGGCA | 0.0106 |
| ATGCGATA | -0.00997 |
| GACACTAC | -0.0165 |
| CGCTCTAC | -0.00234 |
| CACGGTAC | -0.00613 |

Sample 4
Target: CEP164, C-terminal peptide (human)
Method: DHFR complementation, deep sequencing
Medium: yeast
Notes: single substitutions, model-inferred values
Reference: wild type
Reading: higher = weaker binding
Starting sequence: PDZK1, PDZ domain 2 (human); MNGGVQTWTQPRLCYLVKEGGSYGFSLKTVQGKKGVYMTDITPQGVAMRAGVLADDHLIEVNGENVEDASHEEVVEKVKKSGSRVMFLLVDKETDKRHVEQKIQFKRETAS; partner HNRVKVYRF
| Variant | binding free energy change [kcal/mol] |
| --- | --- |
| A69K | -0.15 |
| G21D | 0.00755 |
| K28F | -0.125 |
| F87W | 2.09 |
| N62H | 0.704 |
| L16S | 1.54 |
| S81Q | 0.766 |
| G24L | 1.13 |
| G45H | 0.776 |
| F105D | -0.145 |
| I41D | 1.5 |
| R12M | 0.671 |
| L89C | 0.241 |
| A69D | -0.168 |
| Q44E | -0.109 |
| L89N | 1.55 |
| V74Y | 0.81 |
| M38A | 1 |
| S83A | -0.0117 |
| I41L | 0.331 |
| A69Y | -0.305 |
| N62M | 1.07 |
| E19S | 0.124 |
| A54H | 0.0141 |
| L89A | 1.52 |

A few entries again (sample 2):
| Sequence | log2 enrichment |
| --- | --- |
| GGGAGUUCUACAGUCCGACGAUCUCCUGUGCUACACAUCGUAUGUACCGAAUCGGCCCCCCGGGCCCCCCGGGCCCCCCGGGAAAGUAUUAUGUUACGCCGUUCGGAUCUGCAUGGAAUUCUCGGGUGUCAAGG | -0.442 |
| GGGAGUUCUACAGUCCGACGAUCCAAGUCCUGUGCUACACAUCGUAUGUACCGAAUCGGGUGGGUGGGAAAAAAAGGGAAAGUAUUAUGUUACGCCGUUCGGAUCUGCACUUCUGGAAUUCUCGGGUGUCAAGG | 0.521 |
| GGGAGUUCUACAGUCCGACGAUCUCCUGUGCUACACAUCGUAUGUACCGAAUCGGGUUUGGGUUUUUUUGGGUUUUUUUGGGAAAGUAUUAUGUUACGCCGUUCGGAUCUGCAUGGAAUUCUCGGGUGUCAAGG | -0.0201 |
| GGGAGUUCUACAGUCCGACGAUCUAACUUUAGAGGAGGAUCUGAUGGAUAUGGCAGUGGACGUGGAUUUGGGGAUGGCUAUAAUGGGUAUGGAGGAGGACAUGGAGGUGGCAAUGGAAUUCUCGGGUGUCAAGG | -0.415 |
| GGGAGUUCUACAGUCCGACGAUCUCCUCAAGUCCUGUGCUACACAUCGUAUGUACCGAAUCGGUGGAGGUUUGGAAAGUAUUAUGUUACGCCGUUCGGAUCUGCACUUCCAGCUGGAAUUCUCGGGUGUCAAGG | -0.278 |
| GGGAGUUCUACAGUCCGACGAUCCAAGUCCUGUGCUACACAUCGUAUGUACCGAAUCGGGGUUUGGGGUUUGGGUUUGGAAAGUAUUAUGUUACGCCGUUCGGAUCUGCACUUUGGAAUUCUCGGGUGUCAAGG | -0.574 |
| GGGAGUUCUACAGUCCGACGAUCUAACUUUAGAGGAGGAUCUGAUGGAUAUGGCAGUGGACGUGGAUUUGGGGAUGGCUAGAAUGGGUAUGGAGGAGGACCUGGAGGUGGCAAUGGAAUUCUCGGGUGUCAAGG | -0.254 |
| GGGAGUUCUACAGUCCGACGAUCACCAUGCAGGUGGGCAUCUUUGGGAAGUGGGGCAAGGGGGGGAUAAGGAGGGGGGUAACACUUUGGGAACAGGUGGUCCCAGGUCGUUUCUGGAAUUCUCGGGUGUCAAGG | 0.873 |
| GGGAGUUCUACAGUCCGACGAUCAAGUCCUGUGCUACACAUCGUAUGUACCGAAUCGGGAAAGGGAAAGGGAAAAAGGGAAAGUAUUAUGUUACGCCGUUCGGAUCUGCACUUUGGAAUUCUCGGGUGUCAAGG | 0.353 |
